Published values from different studies.
Parts stem from different laboratories: compare values within a part only.
Chain of UniProt O95819 (whole entry, looked up): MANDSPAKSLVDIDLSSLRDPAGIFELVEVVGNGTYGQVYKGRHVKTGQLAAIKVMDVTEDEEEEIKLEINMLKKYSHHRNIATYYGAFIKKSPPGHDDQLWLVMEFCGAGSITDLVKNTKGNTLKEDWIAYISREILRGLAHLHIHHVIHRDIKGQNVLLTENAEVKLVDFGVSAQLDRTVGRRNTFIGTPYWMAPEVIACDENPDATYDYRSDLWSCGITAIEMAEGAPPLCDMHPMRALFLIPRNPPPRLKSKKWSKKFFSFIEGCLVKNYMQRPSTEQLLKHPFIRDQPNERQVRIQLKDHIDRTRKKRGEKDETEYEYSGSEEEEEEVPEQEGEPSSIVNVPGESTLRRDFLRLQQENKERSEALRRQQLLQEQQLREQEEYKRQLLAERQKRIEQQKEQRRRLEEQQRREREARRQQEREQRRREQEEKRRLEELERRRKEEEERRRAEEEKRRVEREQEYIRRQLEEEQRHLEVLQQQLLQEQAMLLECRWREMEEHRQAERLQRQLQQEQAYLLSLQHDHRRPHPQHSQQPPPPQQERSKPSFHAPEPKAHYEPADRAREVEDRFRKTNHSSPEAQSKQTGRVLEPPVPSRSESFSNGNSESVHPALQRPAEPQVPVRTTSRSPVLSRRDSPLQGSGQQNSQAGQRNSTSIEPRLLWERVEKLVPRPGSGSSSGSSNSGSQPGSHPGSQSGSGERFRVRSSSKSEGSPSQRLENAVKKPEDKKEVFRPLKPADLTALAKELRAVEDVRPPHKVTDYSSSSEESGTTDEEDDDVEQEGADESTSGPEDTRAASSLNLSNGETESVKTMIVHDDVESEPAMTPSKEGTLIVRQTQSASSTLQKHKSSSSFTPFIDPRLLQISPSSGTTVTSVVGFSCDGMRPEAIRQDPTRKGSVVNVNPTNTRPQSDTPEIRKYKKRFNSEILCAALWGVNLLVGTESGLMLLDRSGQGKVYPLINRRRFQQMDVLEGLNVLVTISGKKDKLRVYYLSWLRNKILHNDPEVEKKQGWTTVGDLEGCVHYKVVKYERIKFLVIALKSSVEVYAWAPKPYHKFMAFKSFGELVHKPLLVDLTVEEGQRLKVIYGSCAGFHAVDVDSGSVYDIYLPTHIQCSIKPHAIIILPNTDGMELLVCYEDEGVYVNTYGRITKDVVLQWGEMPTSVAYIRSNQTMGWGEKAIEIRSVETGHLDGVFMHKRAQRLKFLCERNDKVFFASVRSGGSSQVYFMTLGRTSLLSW
Chain of UniProt P06239 (whole entry, looked up): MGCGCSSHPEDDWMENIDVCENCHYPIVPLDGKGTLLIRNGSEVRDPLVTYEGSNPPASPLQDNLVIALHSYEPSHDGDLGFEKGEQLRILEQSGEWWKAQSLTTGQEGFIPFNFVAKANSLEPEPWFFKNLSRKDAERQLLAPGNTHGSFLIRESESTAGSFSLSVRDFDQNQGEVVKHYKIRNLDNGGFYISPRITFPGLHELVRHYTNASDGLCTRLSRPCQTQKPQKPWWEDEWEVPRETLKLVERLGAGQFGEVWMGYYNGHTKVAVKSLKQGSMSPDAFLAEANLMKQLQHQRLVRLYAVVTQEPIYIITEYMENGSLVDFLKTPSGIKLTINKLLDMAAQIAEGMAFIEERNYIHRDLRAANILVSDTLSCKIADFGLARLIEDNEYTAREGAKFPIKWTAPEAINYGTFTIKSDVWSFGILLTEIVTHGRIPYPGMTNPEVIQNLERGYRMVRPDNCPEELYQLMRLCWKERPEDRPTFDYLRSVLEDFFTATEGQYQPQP

Sample 1
Target: Cyclic AMP-dependent transcription factor ATF-1, full length (ATF1, Homo sapiens, UniProt P18846, residues 1-271)
Method: protein-binding microarray
Molecule type: hairpin DNA
Medium: in vitro
Concentration: not given
Setting: whole hairpin DNA, median over replicate spots
Relative to: not given
Direction: higher = stronger binding
Shared flanks, not repeated: GAGGCCGG … CCGGCCTCACACTC
Target sequence (chain): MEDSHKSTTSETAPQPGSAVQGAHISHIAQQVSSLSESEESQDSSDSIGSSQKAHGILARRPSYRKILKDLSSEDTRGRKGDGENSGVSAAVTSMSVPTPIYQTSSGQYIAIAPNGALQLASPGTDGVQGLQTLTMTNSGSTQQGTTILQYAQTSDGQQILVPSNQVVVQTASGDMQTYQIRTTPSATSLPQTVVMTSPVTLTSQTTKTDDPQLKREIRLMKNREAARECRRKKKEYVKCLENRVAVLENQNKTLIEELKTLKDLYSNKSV
`CTGACGTCAGCCTCCTGGCTGACGTCAG (5mC at 34)` has a median fluorescence of 5570 a.u.
`ATGCCGTCAGCCTCCTGGCTGACGGCAT` has a median fluorescence of 3650 a.u.
`CTGCGGTCAGCCTCCTGGCTGACCGCAG (5mC at 12 32)` has a median fluorescence of 3330 a.u.
`ATGACGTCGGCCTCCTGGCCGACGTCAT (5mC at 16)` gave a median fluorescence of 7450 a.u.
`ATGACGTCCGCCTCCTGGCGGACGTCAT (5mC at 17)` gave a median fluorescence of 7690 a.u.
For `CTGACGTCAGCCTCCTGGCTGACGTCAG (5mC at 16)`, the median fluorescence was 6750 a.u.
The median fluorescence of `ATGACGTCAGCCTCCTGGCTGACGTCAT (5mC at 13 31)` is reported as 3540 a.u.
The median fluorescence of `ATGATGTCAGCCTCCTGGCTGACATCAT` is reported as 4020 a.u.

Sample 2
Target: PABPC1L2, full length, GST fusion (mouse, UniProt A0ABA7IW68)
Method: RNAcompete
Molecule type: RNA
Medium: in vitro
Concentration: 20 nM
Setting: 7-mer, probes averaged, single round
Relative to: mean of 7-mers
Direction: higher = stronger binding
Target sequence (chain): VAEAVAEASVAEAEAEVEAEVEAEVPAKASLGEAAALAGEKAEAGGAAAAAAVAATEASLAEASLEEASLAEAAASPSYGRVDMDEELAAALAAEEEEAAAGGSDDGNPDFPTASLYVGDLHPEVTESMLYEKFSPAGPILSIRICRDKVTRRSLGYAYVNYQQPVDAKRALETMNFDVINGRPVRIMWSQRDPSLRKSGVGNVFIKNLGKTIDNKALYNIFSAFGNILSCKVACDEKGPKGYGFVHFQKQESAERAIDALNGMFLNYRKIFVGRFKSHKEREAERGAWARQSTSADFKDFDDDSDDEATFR
With `CUGCUUG` the 7-mer Z-score was -0.266.
`GACGGAU` gave a 7-mer Z-score of 0.113.
`CCUGUAU` has a 7-mer Z-score of -0.293.
With `CUCUUUC` the 7-mer Z-score was -0.44.
`CUCGGUG` gave a 7-mer Z-score of -0.204.
With `ACCAGGG` the 7-mer Z-score was -0.0554.
For `CAGGGCG`, the 7-mer Z-score was 0.0533.
`CGGGUUA` has a 7-mer Z-score of 0.0152.

Sample 3
Structure (SMILES): Cc1cc(NC(=O)c2cccc(S(F)(F)(F)(F)F)c2)cc(-n2ccn3nc(-c4cccnc4)cc23)c1
Observed: cell-free assay
Method: competition with immobilised ligand
Concentration: 1 µM
It gave 98.4% for remaining binding (IRAK4 (Homo sapiens, UniProt Q9NWZ3)).
It gave 100% for remaining binding (PHKG2 (Homo sapiens, UniProt P15735)).
MINK1 (Homo sapiens, UniProt Q8N4C8) — remaining binding: 82%.
The remaining binding was 100% (ITK (Homo sapiens, UniProt Q08881)).
For MAP4K4 (Homo sapiens, UniProt O95819): remaining binding read 100%.
For ACVR1 (Homo sapiens, UniProt Q04771): remaining binding read 100%.
For PHKG1 (Homo sapiens, UniProt Q16816): remaining binding read 100%.
It gave 91.7% for remaining binding (Ribosomal protein S6 kinase alpha-1, N-terminal kinase domain (RPS6KA1, Homo sapiens, UniProt Q15418)).
It gave 92.8% for remaining binding (ROS1 (Homo sapiens, UniProt P08922)).
It gave 71% for remaining binding (MST1R (Homo sapiens, UniProt Q04912)).
For RET (Homo sapiens, UniProt P07949, V804L): remaining binding read 100%.
Tyrosine-protein kinase ABL1, phosphorylated (ABL1, Homo sapiens, UniProt P00519, T315I) — remaining binding: 60.8%.
The remaining binding was 64.9% (MAPK10 (Homo sapiens, UniProt P53779)).
For NUAK2 (Homo sapiens, UniProt Q9H093): remaining binding read 100%.
For TGFBR2 (Homo sapiens, UniProt P37173): remaining binding read 94.5%.
The remaining binding was 100% (Non-receptor tyrosine-protein kinase TYK2, JH2 (TYK2, Homo sapiens, UniProt P29597)).
For EGFR (Homo sapiens, UniProt P00533): remaining binding read 100%.
The remaining binding was 77.6% (HUNK (Homo sapiens, UniProt P57058)).
The remaining binding was 100% (PIK3CG (Homo sapiens, UniProt P48736)).
For PDPK1 (Homo sapiens, UniProt O15530): remaining binding read 92%.
The remaining binding was 34.2% (TIE1 (Homo sapiens, UniProt P35590)).
RIOK2 (Homo sapiens, UniProt Q9BVS4) — remaining binding: 49.7%.
The remaining binding was 96.6% (LCK (Homo sapiens, UniProt P06239)).
The remaining binding was 59.5% (STK25 (Homo sapiens, UniProt O00506)).
Tyrosine-protein kinase ABL1, phosphorylated (ABL1, Homo sapiens, UniProt P00519, F317L) — remaining binding: 72.9%.

Sample 4
Target: DNA polymerase theta, ATPase domain (POLQ, Homo sapiens, UniProt O75417)
Chain of UniProt O75417 (whole entry, unmodified, looked up): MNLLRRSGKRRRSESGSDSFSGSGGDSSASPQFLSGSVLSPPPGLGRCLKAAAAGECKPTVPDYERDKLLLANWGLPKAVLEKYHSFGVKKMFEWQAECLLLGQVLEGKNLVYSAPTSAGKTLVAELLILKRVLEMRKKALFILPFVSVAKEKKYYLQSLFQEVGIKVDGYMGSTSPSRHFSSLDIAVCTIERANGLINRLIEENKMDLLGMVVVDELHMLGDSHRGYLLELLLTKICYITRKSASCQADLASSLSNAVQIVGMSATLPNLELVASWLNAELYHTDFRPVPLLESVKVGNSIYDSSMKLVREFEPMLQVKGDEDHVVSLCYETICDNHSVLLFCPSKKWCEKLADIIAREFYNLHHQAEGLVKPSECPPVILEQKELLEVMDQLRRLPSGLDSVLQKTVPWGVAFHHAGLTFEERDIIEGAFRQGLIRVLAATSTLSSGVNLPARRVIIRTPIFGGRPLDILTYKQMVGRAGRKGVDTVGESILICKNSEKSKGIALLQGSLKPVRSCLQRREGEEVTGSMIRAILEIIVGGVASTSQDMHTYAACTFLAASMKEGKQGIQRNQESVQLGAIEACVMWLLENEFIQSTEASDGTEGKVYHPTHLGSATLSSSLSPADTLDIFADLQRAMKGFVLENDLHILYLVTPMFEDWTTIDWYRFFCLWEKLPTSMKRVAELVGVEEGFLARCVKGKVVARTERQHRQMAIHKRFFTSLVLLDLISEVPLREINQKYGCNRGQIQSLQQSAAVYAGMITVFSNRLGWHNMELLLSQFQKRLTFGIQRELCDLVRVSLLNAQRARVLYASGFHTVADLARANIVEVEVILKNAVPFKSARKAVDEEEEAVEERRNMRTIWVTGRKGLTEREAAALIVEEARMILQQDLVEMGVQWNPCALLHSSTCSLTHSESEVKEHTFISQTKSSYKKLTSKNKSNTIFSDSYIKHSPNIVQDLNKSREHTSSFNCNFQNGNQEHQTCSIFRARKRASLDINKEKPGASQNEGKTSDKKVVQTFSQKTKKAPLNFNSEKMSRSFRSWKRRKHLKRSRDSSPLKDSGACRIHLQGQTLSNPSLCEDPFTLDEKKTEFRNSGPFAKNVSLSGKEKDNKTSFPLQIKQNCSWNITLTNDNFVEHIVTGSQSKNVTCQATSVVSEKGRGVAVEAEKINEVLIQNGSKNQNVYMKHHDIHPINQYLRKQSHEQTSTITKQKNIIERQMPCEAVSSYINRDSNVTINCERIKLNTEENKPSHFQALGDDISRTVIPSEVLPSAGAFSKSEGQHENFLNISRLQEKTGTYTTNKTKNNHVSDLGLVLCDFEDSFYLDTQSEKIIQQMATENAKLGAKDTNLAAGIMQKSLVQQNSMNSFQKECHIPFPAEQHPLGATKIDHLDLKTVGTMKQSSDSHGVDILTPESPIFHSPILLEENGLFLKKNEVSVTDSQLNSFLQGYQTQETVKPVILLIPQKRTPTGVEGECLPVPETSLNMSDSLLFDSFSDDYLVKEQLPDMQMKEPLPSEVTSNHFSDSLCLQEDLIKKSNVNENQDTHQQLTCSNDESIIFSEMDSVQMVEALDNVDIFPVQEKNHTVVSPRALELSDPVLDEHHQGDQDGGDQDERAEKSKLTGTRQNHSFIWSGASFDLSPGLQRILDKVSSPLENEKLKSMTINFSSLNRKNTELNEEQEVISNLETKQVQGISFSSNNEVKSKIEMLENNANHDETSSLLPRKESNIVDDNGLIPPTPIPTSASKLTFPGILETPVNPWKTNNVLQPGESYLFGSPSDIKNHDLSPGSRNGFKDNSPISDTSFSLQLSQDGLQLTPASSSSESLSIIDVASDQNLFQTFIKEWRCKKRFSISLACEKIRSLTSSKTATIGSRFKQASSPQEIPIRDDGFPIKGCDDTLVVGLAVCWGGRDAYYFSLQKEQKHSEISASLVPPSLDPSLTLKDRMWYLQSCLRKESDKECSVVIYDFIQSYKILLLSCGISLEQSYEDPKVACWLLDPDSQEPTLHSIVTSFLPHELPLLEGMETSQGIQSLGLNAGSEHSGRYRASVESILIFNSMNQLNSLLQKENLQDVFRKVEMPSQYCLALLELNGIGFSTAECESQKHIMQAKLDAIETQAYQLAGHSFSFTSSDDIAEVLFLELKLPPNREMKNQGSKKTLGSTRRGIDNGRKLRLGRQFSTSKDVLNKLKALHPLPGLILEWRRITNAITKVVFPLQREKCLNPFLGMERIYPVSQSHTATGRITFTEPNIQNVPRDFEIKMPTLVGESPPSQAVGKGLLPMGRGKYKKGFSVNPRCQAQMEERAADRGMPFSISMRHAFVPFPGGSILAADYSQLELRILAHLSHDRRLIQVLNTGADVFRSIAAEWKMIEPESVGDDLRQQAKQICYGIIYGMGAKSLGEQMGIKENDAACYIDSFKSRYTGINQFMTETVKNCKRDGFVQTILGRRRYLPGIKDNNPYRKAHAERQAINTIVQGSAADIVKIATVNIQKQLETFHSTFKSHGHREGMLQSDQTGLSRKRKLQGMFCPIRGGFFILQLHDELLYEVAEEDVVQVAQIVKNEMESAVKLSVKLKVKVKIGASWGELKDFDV
Observed: enzyme activity
Mode: inhibitor
Concentration: 77 µM
Relative to: untreated
`Oc1ccc(Cn2cc[nH]c2=S)cc1` has a remaining activity of 102%.
The remaining activity of `C=C(c1ccc(C(=O)O)cc1)c1cc2c(cc1C)C(C)(C)CCC2(C)C` is reported as 159%.
With `CC(=O)[C@@]1(O)CC[C@H]2[C@@H]3C[C@H](C)C4=CC(=O)C=C[C@]4(C)[C@@]3(F)[C@@H](O)C[C@@]21C` the remaining activity was 99.4%.

Sample 5
Organism: Sarcocystis neurona
Observed: parasite growth
Concentration: 10 µM
Time: 96 h
For `C[C@H]1c2cccc(O)c2C(=O)C2=C(O)[C@]3(O)C(=O)C(C(N)=O)=C(O)[C@@H](N(C)C)[C@@H]3[C@@H](O)[C@@H]21`, the inhibition was -12.6%.
`Cc1cnc(C(=O)NCCc2ccc(S(=O)(=O)NC(=O)NC3CCCCC3)cc2)cn1` gave an inhibition of -14.5%.
`COC(=O)C1=C(C)NC(C)=C(C(=O)OC)C1c1ccccc1[N+](=O)[O-]` gave an inhibition of -6.8%.

Sample 6
Target: Beta-1 adrenergic receptor (ADRB1, Homo sapiens, UniProt P08588)
Chain of UniProt P08588 (whole entry, looked up): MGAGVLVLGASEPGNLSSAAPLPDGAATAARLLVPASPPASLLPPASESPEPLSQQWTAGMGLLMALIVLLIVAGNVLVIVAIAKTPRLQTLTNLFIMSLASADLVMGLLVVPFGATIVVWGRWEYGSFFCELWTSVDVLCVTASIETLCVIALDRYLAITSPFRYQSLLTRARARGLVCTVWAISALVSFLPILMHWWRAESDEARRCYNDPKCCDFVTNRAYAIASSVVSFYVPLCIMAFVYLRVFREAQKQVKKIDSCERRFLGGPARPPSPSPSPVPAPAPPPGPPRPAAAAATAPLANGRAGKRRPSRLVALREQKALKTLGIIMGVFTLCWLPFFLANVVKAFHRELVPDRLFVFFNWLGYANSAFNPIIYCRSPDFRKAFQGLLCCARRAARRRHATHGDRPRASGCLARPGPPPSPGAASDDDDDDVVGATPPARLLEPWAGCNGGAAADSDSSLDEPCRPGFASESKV
Mode: antagonist
The IC50 of `CC1(C)Cc2c(c(N3CCOCC3)nc3sc(C(=O)Nc4cccc(Cl)c4)c(N)c23)CO1` is reported as ≥ 100 µM.
`O=C(c1cc(-c2cccnc2)nc2ccccc12)N1CCCC2(CCOC2)C1` (centres unmarked) gave an IC50 of ≥ 100 µM.
With `Cc1cc(F)ccc1-c1n[nH]c2ncc(-c3ccsc3)nc12` the IC50 was ≥ 100 µM.

Mixed results
With `O=C1CN(c2nc(C3CCCC3)nc3c2CCOCC3)CCN1` the remaining compound was 84% (mouse, microsomes or S9; 2 µM, 0.5 h).
`OC(c1ccc(-c2ccc(CN3CCN(Cc4ccncc4)CC3)cc2)c(F)c1)(C(F)(F)F)C(F)(F)F` — result for “nuclear SOX9 intensity”: 171 % of DMSO (mouse MPNST tumor cells; high-content immunofluorescence imaging, item: nuclear SOX9; 10 µM, 12 h, mean of 2 replicates; relative to: DMSO control, higher = more nuclear SOX9).
For `CC(C)n1cnc(-c2ccc(F)cc2)c1-c1ncc(C(=O)Nc2ccc(N3CCN(C)CC3)cc2)[nH]1`, “patients with treatment-related adverse events” read 72.7% (phase 2a clinical trial; patients with idiopathic pulmonary fibrosis; 60 mg once daily, added: standard of care).

For quick reference, copied from above (sample 3):
Tyrosine-protein kinase ABL1, phosphorylated (ABL1, Homo sapiens, UniProt P00519, T315I) — remaining binding: 60.8%.
The remaining binding was 64.9% (MAPK10 (Homo sapiens, UniProt P53779)).
For NUAK2 (Homo sapiens, UniProt Q9H093): remaining binding read 100%.
For TGFBR2 (Homo sapiens, UniProt P37173): remaining binding read 94.5%.
The remaining binding was 100% (Non-receptor tyrosine-protein kinase TYK2, JH2 (TYK2, Homo sapiens, UniProt P29597)).
For EGFR (Homo sapiens, UniProt P00533): remaining binding read 100%.
